Measurements collected from several papers.
Every numbered part comes from another study and shows a few of its results, in no order.
UniProt Q5S007, sequence (whole entry, unmodified, looked up): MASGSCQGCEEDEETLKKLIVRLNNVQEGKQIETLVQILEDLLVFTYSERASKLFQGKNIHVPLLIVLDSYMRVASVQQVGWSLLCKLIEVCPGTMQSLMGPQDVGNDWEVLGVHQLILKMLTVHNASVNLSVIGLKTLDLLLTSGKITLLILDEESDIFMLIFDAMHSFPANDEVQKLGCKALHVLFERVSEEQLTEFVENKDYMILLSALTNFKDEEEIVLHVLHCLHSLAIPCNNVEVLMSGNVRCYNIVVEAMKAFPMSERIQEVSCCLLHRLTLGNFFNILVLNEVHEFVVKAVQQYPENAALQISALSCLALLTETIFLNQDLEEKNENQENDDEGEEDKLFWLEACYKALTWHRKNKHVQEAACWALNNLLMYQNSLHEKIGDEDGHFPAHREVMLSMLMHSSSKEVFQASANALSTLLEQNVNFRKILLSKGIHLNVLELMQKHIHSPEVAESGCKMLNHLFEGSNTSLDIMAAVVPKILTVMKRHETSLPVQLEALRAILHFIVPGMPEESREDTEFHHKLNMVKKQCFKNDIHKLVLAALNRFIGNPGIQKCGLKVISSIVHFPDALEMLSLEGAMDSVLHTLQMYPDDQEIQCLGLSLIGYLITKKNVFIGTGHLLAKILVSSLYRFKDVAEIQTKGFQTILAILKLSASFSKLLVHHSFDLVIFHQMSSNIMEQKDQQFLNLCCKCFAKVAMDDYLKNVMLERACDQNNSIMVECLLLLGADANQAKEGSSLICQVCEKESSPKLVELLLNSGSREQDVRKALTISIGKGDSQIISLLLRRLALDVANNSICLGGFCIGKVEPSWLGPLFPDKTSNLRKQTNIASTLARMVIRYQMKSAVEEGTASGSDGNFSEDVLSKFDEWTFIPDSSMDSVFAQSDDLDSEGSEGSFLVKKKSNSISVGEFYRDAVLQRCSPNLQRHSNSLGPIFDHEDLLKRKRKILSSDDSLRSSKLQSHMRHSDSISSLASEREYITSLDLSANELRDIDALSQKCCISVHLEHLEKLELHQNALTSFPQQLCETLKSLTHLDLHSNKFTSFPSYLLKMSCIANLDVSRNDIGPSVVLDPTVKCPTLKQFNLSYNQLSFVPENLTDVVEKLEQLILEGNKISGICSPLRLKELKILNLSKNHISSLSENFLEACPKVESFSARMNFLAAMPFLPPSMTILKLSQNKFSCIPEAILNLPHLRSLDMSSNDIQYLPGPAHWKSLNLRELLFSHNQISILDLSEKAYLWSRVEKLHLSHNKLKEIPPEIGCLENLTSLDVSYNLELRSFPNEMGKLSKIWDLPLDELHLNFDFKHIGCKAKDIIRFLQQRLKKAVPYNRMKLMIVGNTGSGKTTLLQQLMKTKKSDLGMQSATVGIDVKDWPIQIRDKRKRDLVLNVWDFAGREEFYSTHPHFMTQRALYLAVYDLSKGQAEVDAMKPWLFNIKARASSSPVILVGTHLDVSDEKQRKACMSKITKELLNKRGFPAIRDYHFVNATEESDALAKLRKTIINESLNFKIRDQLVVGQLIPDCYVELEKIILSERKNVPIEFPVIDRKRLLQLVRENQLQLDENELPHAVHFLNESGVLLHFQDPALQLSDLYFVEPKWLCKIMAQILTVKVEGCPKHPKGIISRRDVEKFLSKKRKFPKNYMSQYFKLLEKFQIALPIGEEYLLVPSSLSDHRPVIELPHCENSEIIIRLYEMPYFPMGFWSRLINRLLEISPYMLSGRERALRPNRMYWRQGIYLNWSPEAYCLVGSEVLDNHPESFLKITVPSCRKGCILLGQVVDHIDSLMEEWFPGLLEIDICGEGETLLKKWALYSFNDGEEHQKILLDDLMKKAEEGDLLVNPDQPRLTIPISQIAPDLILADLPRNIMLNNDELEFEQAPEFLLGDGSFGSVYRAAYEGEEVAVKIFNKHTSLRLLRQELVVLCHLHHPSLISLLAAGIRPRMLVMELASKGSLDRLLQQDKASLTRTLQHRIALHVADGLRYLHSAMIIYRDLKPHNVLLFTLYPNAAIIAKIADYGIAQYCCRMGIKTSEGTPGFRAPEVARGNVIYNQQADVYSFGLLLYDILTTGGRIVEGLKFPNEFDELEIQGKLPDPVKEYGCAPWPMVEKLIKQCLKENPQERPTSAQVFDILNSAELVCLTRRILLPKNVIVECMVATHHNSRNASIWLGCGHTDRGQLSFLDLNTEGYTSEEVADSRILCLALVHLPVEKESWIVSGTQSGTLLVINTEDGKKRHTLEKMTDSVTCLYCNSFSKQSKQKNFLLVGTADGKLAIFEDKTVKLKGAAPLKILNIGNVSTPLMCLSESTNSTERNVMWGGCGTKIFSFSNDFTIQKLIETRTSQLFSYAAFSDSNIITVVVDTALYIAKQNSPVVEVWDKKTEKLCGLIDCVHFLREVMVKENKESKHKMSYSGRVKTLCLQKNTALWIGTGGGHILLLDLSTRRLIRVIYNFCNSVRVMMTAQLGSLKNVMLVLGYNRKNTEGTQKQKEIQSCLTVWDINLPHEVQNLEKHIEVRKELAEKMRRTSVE
UniProt Q99640, sequence (whole entry, looked up): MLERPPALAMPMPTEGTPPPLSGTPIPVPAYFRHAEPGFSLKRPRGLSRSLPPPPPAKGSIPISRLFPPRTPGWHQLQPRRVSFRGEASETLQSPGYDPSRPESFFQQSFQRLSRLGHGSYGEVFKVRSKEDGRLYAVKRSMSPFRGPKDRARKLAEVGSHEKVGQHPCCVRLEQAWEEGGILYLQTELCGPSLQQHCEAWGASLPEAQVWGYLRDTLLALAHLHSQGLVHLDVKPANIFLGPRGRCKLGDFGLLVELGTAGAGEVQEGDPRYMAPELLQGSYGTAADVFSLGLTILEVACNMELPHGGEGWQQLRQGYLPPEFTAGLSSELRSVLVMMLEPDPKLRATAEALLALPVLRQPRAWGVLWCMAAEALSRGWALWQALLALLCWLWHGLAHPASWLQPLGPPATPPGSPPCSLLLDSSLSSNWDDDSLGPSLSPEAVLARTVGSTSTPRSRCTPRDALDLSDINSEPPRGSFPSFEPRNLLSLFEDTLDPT
UniProt O94768, sequence (whole entry, looked up): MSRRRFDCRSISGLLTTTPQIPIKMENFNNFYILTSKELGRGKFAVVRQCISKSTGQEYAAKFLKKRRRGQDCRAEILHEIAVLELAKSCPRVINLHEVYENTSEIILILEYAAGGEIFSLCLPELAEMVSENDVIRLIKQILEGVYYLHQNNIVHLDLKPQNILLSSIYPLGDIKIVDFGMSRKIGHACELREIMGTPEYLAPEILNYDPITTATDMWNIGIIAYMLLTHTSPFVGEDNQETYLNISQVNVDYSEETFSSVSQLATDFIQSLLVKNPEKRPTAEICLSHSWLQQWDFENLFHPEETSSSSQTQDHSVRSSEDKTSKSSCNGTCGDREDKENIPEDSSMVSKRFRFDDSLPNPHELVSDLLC
UniProt P07333, sequence (whole entry, looked up): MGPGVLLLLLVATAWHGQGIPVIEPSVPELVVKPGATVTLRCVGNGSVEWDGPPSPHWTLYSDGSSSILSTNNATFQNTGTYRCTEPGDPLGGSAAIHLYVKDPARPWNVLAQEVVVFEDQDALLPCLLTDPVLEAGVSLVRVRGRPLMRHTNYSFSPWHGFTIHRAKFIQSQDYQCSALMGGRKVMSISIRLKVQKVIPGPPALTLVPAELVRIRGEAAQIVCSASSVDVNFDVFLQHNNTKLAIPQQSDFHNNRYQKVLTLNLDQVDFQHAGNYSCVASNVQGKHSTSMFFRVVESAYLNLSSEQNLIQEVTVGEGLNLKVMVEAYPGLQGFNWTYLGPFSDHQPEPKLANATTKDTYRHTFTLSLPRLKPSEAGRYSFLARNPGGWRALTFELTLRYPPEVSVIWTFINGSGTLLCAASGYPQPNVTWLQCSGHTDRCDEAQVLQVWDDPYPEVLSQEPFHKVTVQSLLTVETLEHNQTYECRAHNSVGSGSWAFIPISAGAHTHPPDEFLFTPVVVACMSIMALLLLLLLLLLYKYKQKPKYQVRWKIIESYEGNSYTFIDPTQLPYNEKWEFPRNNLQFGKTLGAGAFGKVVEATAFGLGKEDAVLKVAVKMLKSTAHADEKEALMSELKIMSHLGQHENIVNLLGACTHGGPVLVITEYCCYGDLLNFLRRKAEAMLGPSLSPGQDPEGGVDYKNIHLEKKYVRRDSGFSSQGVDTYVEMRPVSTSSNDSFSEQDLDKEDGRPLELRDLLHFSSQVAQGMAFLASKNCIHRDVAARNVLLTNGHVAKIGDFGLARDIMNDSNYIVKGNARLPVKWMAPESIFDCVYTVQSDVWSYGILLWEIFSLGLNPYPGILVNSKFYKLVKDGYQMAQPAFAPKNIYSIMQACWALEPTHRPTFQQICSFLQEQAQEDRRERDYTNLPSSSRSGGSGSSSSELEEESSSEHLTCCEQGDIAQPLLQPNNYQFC
UniProt P48729, sequence (whole entry, looked up): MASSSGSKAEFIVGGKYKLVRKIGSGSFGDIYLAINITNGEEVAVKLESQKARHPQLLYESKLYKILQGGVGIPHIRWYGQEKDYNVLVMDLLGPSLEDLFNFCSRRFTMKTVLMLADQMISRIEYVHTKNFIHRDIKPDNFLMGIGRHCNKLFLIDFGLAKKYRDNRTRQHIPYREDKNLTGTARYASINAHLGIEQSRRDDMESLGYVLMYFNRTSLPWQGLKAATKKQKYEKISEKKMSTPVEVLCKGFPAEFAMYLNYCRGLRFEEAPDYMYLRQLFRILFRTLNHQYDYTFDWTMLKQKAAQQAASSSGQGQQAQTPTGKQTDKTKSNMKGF
UniProt O15264, sequence (whole entry, looked up): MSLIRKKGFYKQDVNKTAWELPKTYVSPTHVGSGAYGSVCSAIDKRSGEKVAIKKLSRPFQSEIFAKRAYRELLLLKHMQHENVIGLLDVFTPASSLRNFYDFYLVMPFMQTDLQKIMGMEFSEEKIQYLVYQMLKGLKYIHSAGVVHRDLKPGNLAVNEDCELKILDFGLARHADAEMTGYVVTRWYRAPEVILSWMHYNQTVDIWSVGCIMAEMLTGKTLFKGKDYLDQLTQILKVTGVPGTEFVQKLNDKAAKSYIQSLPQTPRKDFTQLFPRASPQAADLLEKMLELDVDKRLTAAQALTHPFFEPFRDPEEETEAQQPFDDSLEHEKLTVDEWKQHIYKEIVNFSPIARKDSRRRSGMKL

Sample 1 — observed: enzyme activity; action: inhibitor; concentration: 0.5 µM; baseline: control; quantity: remaining activity
Structure (SMILES): CC(C)(C)c1nc2c3cc[nH]c(=O)c3c3cc(F)ccc3c2[nH]1
Mitogen-activated protein kinase kinase kinase kinase 2 (MAP4K2, Homo sapiens, UniProt Q12851): 66.2%
Casein kinase I isoform alpha (CSNK1A1, Homo sapiens, UniProt P48729): 94.6%
Mitogen-activated protein kinase 12 (MAPK12, Homo sapiens, UniProt P53778): 97.9%
Mitogen-activated protein kinase 13 (MAPK13, Homo sapiens, UniProt O15264): 104%
RAC-gamma serine/threonine-protein kinase (AKT3, Homo sapiens, UniProt Q9Y243): 76.4%
Ephrin type-A receptor 5 (EPHA5, Homo sapiens, UniProt P54756): 100%
Protein kinase C iota type (PRKCI, Homo sapiens, UniProt P41743): 96%
Cyclin-dependent kinase 9, with cyclin T1 (CDK9, Homo sapiens, UniProt P50750): 100%
Interleukin-1 receptor-associated kinase 4 (IRAK4, Homo sapiens, UniProt Q9NWZ3): 96.3%
Leucine-rich repeat serine/threonine-protein kinase 2 (LRRK2, Homo sapiens, UniProt Q5S007): 47.5%
Mast/stem cell growth factor receptor Kit (KIT, Homo sapiens, UniProt P10721): 96.1%
Serine/threonine-protein kinase WNK2 (WNK2, Homo sapiens, UniProt Q9Y3S1): 104%
Serine/threonine-protein kinase PLK2 (PLK2, Homo sapiens, UniProt Q9NYY3): 92.6%
Casein kinase II subunit alpha (CSNK2A1, Homo sapiens, UniProt P68400): 82.9%
MAP kinase-interacting serine/threonine-protein kinase 2 (MKNK2, Homo sapiens, UniProt Q9HBH9): 62%

Sample 2 — technique: RNA Bind-n-Seq; form: RNA; medium: in vitro; concentration: 20 nM; notes: 6-mer, flanks averaged, single round; added: 150 mM LiCl; baseline: input library; direction: higher = stronger binding; quantity: 6-mer enrichment (R)
Target: TAR DNA-binding protein 43, full length, His tag (TARDBP, Homo sapiens, UniProt Q13148, residues 1-414)
UUUACC: 1.04
GCACCU: 0.958
ACUGAU: 0.837
UCAGGG: 0.991
GAGUAG: 1.1
UGGUCU: 0.949
CUCCUG: 0.932
GCAGCA: 0.955

Sample 3 — observed: cell-free assay; technique: competition with immobilised ligand; concentration: 1 µM; quantity: remaining binding
SMILES: N#CC1(c2ccccn2)CCN(Cc2cc(C(=O)N3CCCC3)c(=O)n3ccccc23)CC1
Mitogen-activated protein kinase kinase kinase kinase 3 (MAP4K3, Homo sapiens, UniProt Q8IVH8): 81%
Leucine-rich repeat serine/threonine-protein kinase 2 (LRRK2, Homo sapiens, UniProt Q5S007, G2019S): 100%
Mitotic checkpoint serine/threonine-protein kinase BUB1 (BUB1, Homo sapiens, UniProt O43683): 100%
Phosphatidylinositol 4-kinase beta (PI4KB, Homo sapiens, UniProt Q9UBF8): 100%
Serine/threonine-protein kinase LATS1 (LATS1, Homo sapiens, UniProt O95835): 100%
cAMP-dependent protein kinase catalytic subunit alpha (PRKACA, Homo sapiens, UniProt P17612): 88%
Membrane-associated tyrosine- and threonine-specific cdc2-inhibitory kinase (PKMYT1, Homo sapiens, UniProt Q99640): 79%
Serine/threonine-protein kinase pim-1 (PIM1, Homo sapiens, UniProt P11309): 100%
Tyrosine-protein kinase JAK1, JH2 (JAK1, Homo sapiens, UniProt P23458): 100%
Death-associated protein kinase 1 (DAPK1, Homo sapiens, UniProt P53355): 89%
Tyrosine-protein kinase Mer (MERTK, Homo sapiens, UniProt Q12866): 86%
Serine/threonine-protein kinase 17B (STK17B, Homo sapiens, UniProt O94768): 93%
Macrophage colony-stimulating factor 1 receptor (CSF1R, Homo sapiens, UniProt P07333): 94%
Mitogen-activated protein kinase 4 (MAPK4, Homo sapiens, UniProt P31152): 76%
Insulin-like growth factor 1 receptor (IGF1R, Homo sapiens, UniProt P08069): 88%

Sample 4 — technique: protein-binding microarray; form: double-stranded DNA, one strand shown; medium: in vitro; concentration: not given; direction: higher = stronger binding; quantity: E-score
Target: Protein C-ets-1 (ETS1, Homo sapiens, UniProt P14921, residues 1-441, full length assumed)
Notes: k-mer, scored over probes, only values ≥0.25
Residues (chain): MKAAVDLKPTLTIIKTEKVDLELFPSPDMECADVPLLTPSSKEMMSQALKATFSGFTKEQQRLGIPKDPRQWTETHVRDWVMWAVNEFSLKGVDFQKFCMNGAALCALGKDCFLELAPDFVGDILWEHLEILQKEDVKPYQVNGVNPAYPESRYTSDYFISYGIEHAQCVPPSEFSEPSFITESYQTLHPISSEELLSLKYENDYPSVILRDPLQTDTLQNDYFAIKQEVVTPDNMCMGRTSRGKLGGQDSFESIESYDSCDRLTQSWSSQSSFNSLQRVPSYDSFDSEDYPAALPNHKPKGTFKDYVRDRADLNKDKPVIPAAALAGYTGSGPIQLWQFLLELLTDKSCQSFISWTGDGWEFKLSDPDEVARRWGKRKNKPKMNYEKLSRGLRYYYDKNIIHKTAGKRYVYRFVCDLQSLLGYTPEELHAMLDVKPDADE
AGCGGAAC: 0.416
TATCCGCA: 0.413
CGGAATAG: 0.296
CGGAGGAA: 0.377
TGTCGGAA: 0.298
GGAAACCA: 0.408
AAAGGATG: 0.323
ACTTCCGG: 0.499

Excerpt of the above (sample 2):
GAGUAG: 1.1
CUCCUG: 0.932
UGGUCU: 0.949
UUUACC: 1.04
GCACCU: 0.958
